Results of several laboratories.
Lines come from different studies, so protocols differ.
Organism: Pseudomonas aeruginosa

| SMILES | assay | system | conditions | quantity | result |
| --- | --- | --- | --- | --- | --- |
| CC(C)C[C@H](NC(=O)[C@@H]1CSCC(=O)N[C@@H](CCCCN)C(=O)N[C@@H](CC(C)C)C(=O)N[C@@H](CCCCN)C(=O)NCCCC[C@@H]2NC(=O)[C@H](CCCCN)NC(=O)[C@H](CC(C)C)NC(=O)[C@H](CCCCN)NC(=O)CSC[C@H](NC(=O)[C@H](CC(C)C)NC(=O)[C@H](CC(C)C)NC(=O)[C@H](CCCCN)NC2=O)C(=O)N[C@@H](CCCCN)C(=O)N[C@@H](CC(C)C)C(=O)N[C@@H](CCCCN)C(=O)N1)C(N)=O | – | PAO1 | 24 to 25 h | minimal biofilm inhibitory concentration | 16 µg/mL |
| CC[C@H](C)[C@H](NC(=O)[C@H](CCCNC(=N)N)NC(=O)[C@H](CCCCN)NC(=O)[C@H](CC(C)C)NC(=O)[C@H](CC(C)C)NC(=O)CN)C(=O)N[C@@H](CCCCN)C(=O)N[C@H](C(=O)N[C@@H](CC(C)C)C(=O)N[C@@H](CC(C)C)C(=O)NCCCC[C@H](NC(=O)[C@H](CC(C)C)NC(=O)[C@H](CC(C)C)NC(=O)[C@@H](NC(=O)[C@H](CCCCN)NC(=O)[C@@H](NC(=O)[C@H](CCCNC(=N)N)NC(=O)[C@H](CCCCN)NC(=O)[C@H](CC(C)C)NC(=O)[C@H](CC(C)C)NC(=O)CN)[C@@H](C)CC)[C@@H](C)O)C(=O)NCCCC[C@H](NC(=O)[C@H](CCCCNC(=O)[C@H](CC(C)C)NC(=O)[C@H](CC(C)C)NC(=O)[C@@H](NC(=O)[C@H](CCCCN)NC(=O)[C@@H](NC(=O)[C@H](CCCNC(=N)N)NC(=O)[C@H](CCCCN)NC(=O)[C@H](CC(C)C)NC(=O)[C@H](CC(C)C)NC(=O)CN)[C@@H](C)CC)[C@@H](C)O)NC(=O)[C@H](CC(C)C)NC(=O)[C@H](CC(C)C)NC(=O)[C@@H](NC(=O)[C@H](CCCCN)NC(=O)[C@@H](NC(=O)[C@H](CCCNC(=N)N)NC(=O)[C@H](CCCCN)NC(=O)[C@H](CC(C)C)NC(=O)[C@H](CC(C)C)NC(=O)CN)[C@@H](C)CC)[C@@H](C)O)C(N)=O)[C@@H](C)O | checkerboard | ATCC 27853 | together with: polymyxin B | FIC index | 0.25 |
| ONCC1CCCCC1 | CLSM COMSTAT, item: biomass and average thickness | continuous-flow biofilm | concentration not given | biofilm reduction | > 50% |
| CC[C@H](C)[C@H](NC(=O)[C@H](CCCCN)NC(=O)[C@H](CCCCN)NC(=O)[C@H](CC(C)C)NC(=O)[C@H](CCCCN)NC(=O)[C@H](CCC(=O)O)NC(=O)[C@H](CCCCN)NC(=O)[C@@H](NC(=O)[C@H](CCCCN)NC(=O)[C@H](CC(N)=O)NC(=O)[C@H](CCCNC(=N)N)NC(=O)[C@H](Cc1ccccc1)NC(=O)[C@H](CCCCN)NC(=O)[C@H](CCCNC(=N)N)NC(=O)[C@H](CC(C)C)NC(=O)[C@H](CCCNC(=N)N)NC(=O)[C@H](CCCCN)NC(=O)[C@H](CCCNC(=N)N)NC(=O)[C@@H](N)CC(C)C)[C@@H](C)CC)C(=O)NCC(=O)N[C@@H](CCC(N)=O)C(=O)N[C@@H](CCCCN)C(=O)N[C@H](C(=O)N[C@@H](CCC(N)=O)C(=O)NCC(=O)N[C@@H](Cc1ccccc1)C(=O)N[C@H](C(=O)N1CCC[C@H]1C(=O)N[C@@H](CCCCN)C(=O)N[C@@H](CC(C)C)C(=O)O)C(C)C)[C@@H](C)CC | inhibition zone method | 11092618, LB 0.8% agar with 154 mM NaCl | overnight, 37 °C | lethal concentration | 2.66 µM |
| CC[C@H](C)[C@H](NC(=O)[C@H](Cc1c[nH]cn1)NC(=O)[C@H](CCCCNC(=O)[C@@H](NC(=O)[C@H](CCCCN)NC(=O)CSC[C@H](NC(=O)[C@H](Cc1ccccc1)NC(=O)[C@H](CCCCNC(=O)[C@H](CC(C)C)NC(=O)[C@@H]1CCCN1C(=O)[C@H](CCCCN)NC(=O)c1ccc(O[C@@H]2O[C@H](CO)[C@H](O)[C@H](O)[C@H]2O)cc1)NC(=O)[C@H](CC(C)C)NC(=O)[C@@H]1CCCN1C(=O)[C@H](CCCCN)NC(=O)c1ccc(O[C@@H]2O[C@H](CO)[C@H](O)[C@H](O)[C@H]2O)cc1)C(N)=O)[C@@H](C)CC)NC(=O)[C@@H](NC(=O)[C@H](CCCCN)NC(=O)CSC[C@H](NC(=O)[C@H](Cc1ccccc1)NC(=O)[C@H](CCCCNC(=O)[C@H](CC(C)C)NC(=O)[C@@H]1CCCN1C(=O)[C@H](CCCCN)NC(=O)c1ccc(O[C@@H]2O[C@H](CO)[C@H](O)[C@H](O)[C@H]2O)cc1)NC(=O)[C@H](CC(C)C)NC(=O)[C@@H]1CCCN1C(=O)[C@H](CCCCN)NC(=O)c1ccc(O[C@@H]2O[C@H](CO)[C@H](O)[C@H](O)[C@H]2O)cc1)C(N)=O)[C@@H](C)CC)C(N)=O | biofilm formation | PAO1 | 24 h | MBIC | 30 µM |
| CC[C@H](C)[C@H](NC(=O)[C@H](CCCCN)NC(=O)[C@H](CCCCN)NC(=O)[C@H](CC(C)C)NC(=O)[C@H](CCCCN)NC(=O)[C@H](CCC(=O)O)NC(=O)[C@H](CCCCN)NC(=O)[C@@H](NC(=O)[C@H](CCCCN)NC(=O)[C@H](CC(N)=O)NC(=O)[C@H](CCCNC(=N)N)NC(=O)[C@H](Cc1ccccc1)NC(=O)[C@H](CCCCN)NC(=O)[C@H](CCCNC(=N)N)NC(=O)[C@H](CC(C)C)NC(=O)[C@H](CCCNC(=N)N)NC(=O)[C@H](CCCCN)NC(=O)[C@H](CCCNC(=N)N)NC(=O)[C@H](CC(C)C)NC(=O)[C@@H](N)CC(C)C)[C@@H](C)CC)C(=O)NCC(=O)N[C@@H](CCC(N)=O)C(=O)N[C@@H](CCCCN)C(=O)N[C@H](C(=O)N[C@@H](CCC(N)=O)C(=O)NCC(=O)N[C@@H](Cc1ccccc1)C(=O)N[C@H](C(=O)N1CCC[C@H]1C(=O)N[C@@H](CCCCN)C(=O)N[C@@H](CC(C)C)C(=O)N[C@H](C(=O)N1CCC[C@H]1C(=O)N[C@@H](CCCNC(=N)N)C(=O)N[C@H](C(=O)N[C@@H](CCC(=O)O)C(=O)N[C@@H](CO)C(=O)O)[C@@H](C)O)C(C)C)C(C)C)[C@@H](C)CC | inhibition zone | DH | – | lethal concentration | 2.89 µM |
| Nc1ccccc1C(=O)NS(=O)(=O)NC[C@H]1O[C@@H](n2cnc3c(N)ncnc32)[C@H](O)[C@@H]1O | PQS production, LC-MS/MS | PA14 | 1500 µM, 20 h | inhibition | 92% |
| CC[C@H](C)[C@H](NC(=O)[C@H](CCCCN)NC(=O)[C@H](CCCCN)NC(=O)[C@H](CC(C)C)NC(=O)[C@H](CCCCN)NC(=O)[C@H](CCC(=O)O)NC(=O)[C@H](CCCCN)NC(=O)[C@@H](NC(=O)[C@H](CCCCN)NC(=O)[C@H](CC(N)=O)NC(=O)[C@H](CCCNC(=N)N)NC(=O)[C@H](Cc1ccccc1)NC(=O)[C@H](CCCCN)NC(=O)[C@H](CCCNC(=N)N)NC(=O)[C@H](CC(C)C)NC(=O)[C@H](CCCNC(=N)N)NC(=O)[C@H](CCCCN)NC(=O)[C@H](CCCNC(=N)N)NC(=O)[C@H](CC(C)C)NC(=O)CN)[C@@H](C)CC)C(=O)NCC(=O)N[C@@H](CCC(N)=O)C(=O)N[C@@H](CCCCN)C(=O)N[C@H](C(=O)N[C@@H](CCC(N)=O)C(=O)NCC(=O)N[C@@H](Cc1ccccc1)C(=O)N[C@H](C(=O)N1CCC[C@H]1C(=O)N[C@@H](CCCCN)C(=O)N[C@@H](CC(C)C)C(=O)N[C@@H](C)C(=O)N1CCC[C@H]1C(=O)N[C@@H](CCCNC(=N)N)C(=O)N[C@H](C(=O)N[C@@H](CC(=O)O)C(=O)N[C@@H](Cc1ccc(O)cc1)C(=O)O)[C@@H](C)O)C(C)C)[C@@H](C)CC | inhibition zone method | 11092304, LB 0.8% agar with 154 mM NaCl | overnight, 37 °C | lethal concentration | 3.13 µM |
| CCCCCC(=O)NCC(=O)N[C@@H](CC(C)C)C(=O)N[C@@H](CC(C)C)C(=O)N[C@@H](CCCCN)C(=O)N[C@@H](CCCNC(=N)N)C(=O)N[C@H](C(=O)N[C@@H](CCCCN)C(=O)N[C@H](C(=O)N[C@@H](CC(C)C)C(=O)N[C@@H](CC(C)C)C(=O)NCCCC[C@H](NC(=O)[C@H](CCCCNC(=O)[C@H](CC(C)C)NC(=O)[C@H](CC(C)C)NC(=O)[C@@H](NC(=O)[C@H](CCCCN)NC(=O)[C@@H](NC(=O)[C@H](CCCNC(=N)N)NC(=O)[C@H](CCCCN)NC(=O)[C@H](CC(C)C)NC(=O)[C@H](CC(C)C)NC(=O)CNC(=O)CCCCC)[C@@H](C)CC)[C@@H](C)O)NC(=O)[C@H](CC(C)C)NC(=O)[C@H](CC(C)C)NC(=O)[C@@H](NC(=O)[C@H](CCCCN)NC(=O)[C@@H](NC(=O)[C@H](CCCNC(=N)N)NC(=O)[C@H](CCCCN)NC(=O)[C@H](CC(C)C)NC(=O)[C@H](CC(C)C)NC(=O)CNC(=O)CCCCC)[C@@H](C)CC)[C@@H](C)O)C(N)=O)[C@@H](C)O)[C@@H](C)CC | checkerboard | ATCC 27853 | together with: rifampicin | FIC index | 0.375 |
| CC[C@H](C)[C@H](NC(=O)[C@H](Cc1c[nH]cn1)NC(=O)[C@H](CCCCNC(=O)[C@@H](NC(=O)[C@H](CCCCN)NC(=O)[C@H](Cc1ccccc1)NC(=O)[C@H](CCCCNC(=O)[C@H](CC(C)C)NC(=O)[C@@H]1CCCN1C(=O)[C@H](CCCCN)NC(=O)C[C@@H]1O[C@@H](C)[C@@H](O)[C@@H](O)[C@@H]1O)NC(=O)[C@H](CC(C)C)NC(=O)[C@@H]1CCCN1C(=O)[C@H](CCCCN)NC(=O)C[C@@H]1O[C@@H](C)[C@@H](O)[C@@H](O)[C@@H]1O)[C@@H](C)CC)NC(=O)[C@@H](NC(=O)[C@H](CCCCN)NC(=O)[C@H](Cc1ccccc1)NC(=O)[C@H](CCCCNC(=O)[C@H](CC(C)C)NC(=O)[C@@H]1CCCN1C(=O)[C@H](CCCCN)NC(=O)C[C@@H]1O[C@@H](C)[C@@H](O)[C@@H](O)[C@@H]1O)NC(=O)[C@H](CC(C)C)NC(=O)[C@@H]1CCCN1C(=O)[C@H](CCCCN)NC(=O)C[C@@H]1O[C@@H](C)[C@@H](O)[C@@H](O)[C@@H]1O)[C@@H](C)CC)C(N)=O | biofilm formation | PAO1 | 24 h | MBIC | 20 µM |

Excerpt of the above:
| SMILES | assay | system | conditions | quantity | result |
| --- | --- | --- | --- | --- | --- |
| CCCCCC(=O)NCC(=O)N[C@@H](CC(C)C)C(=O)N[C@@H](CC(C)C)C(=O)N[C@@H](CCCCN)C(=O)N[C@@H](CCCNC(=N)N)C(=O)N[C@H](C(=O)N[C@@H](CCCCN)C(=O)N[C@H](C(=O)N[C@@H](CC(C)C)C(=O)N[C@@H](CC(C)C)C(=O)NCCCC[C@H](NC(=O)[C@H](CCCCNC(=O)[C@H](CC(C)C)NC(=O)[C@H](CC(C)C)NC(=O)[C@@H](NC(=O)[C@H](CCCCN)NC(=O)[C@@H](NC(=O)[C@H](CCCNC(=N)N)NC(=O)[C@H](CCCCN)NC(=O)[C@H](CC(C)C)NC(=O)[C@H](CC(C)C)NC(=O)CNC(=O)CCCCC)[C@@H](C)CC)[C@@H](C)O)NC(=O)[C@H](CC(C)C)NC(=O)[C@H](CC(C)C)NC(=O)[C@@H](NC(=O)[C@H](CCCCN)NC(=O)[C@@H](NC(=O)[C@H](CCCNC(=N)N)NC(=O)[C@H](CCCCN)NC(=O)[C@H](CC(C)C)NC(=O)[C@H](CC(C)C)NC(=O)CNC(=O)CCCCC)[C@@H](C)CC)[C@@H](C)O)C(N)=O)[C@@H](C)O)[C@@H](C)CC | checkerboard | ATCC 27853 | together with: rifampicin | FIC index | 0.375 |
| CC[C@H](C)[C@H](NC(=O)[C@H](Cc1c[nH]cn1)NC(=O)[C@H](CCCCNC(=O)[C@@H](NC(=O)[C@H](CCCCN)NC(=O)CSC[C@H](NC(=O)[C@H](Cc1ccccc1)NC(=O)[C@H](CCCCNC(=O)[C@H](CC(C)C)NC(=O)[C@@H]1CCCN1C(=O)[C@H](CCCCN)NC(=O)c1ccc(O[C@@H]2O[C@H](CO)[C@H](O)[C@H](O)[C@H]2O)cc1)NC(=O)[C@H](CC(C)C)NC(=O)[C@@H]1CCCN1C(=O)[C@H](CCCCN)NC(=O)c1ccc(O[C@@H]2O[C@H](CO)[C@H](O)[C@H](O)[C@H]2O)cc1)C(N)=O)[C@@H](C)CC)NC(=O)[C@@H](NC(=O)[C@H](CCCCN)NC(=O)CSC[C@H](NC(=O)[C@H](Cc1ccccc1)NC(=O)[C@H](CCCCNC(=O)[C@H](CC(C)C)NC(=O)[C@@H]1CCCN1C(=O)[C@H](CCCCN)NC(=O)c1ccc(O[C@@H]2O[C@H](CO)[C@H](O)[C@H](O)[C@H]2O)cc1)NC(=O)[C@H](CC(C)C)NC(=O)[C@@H]1CCCN1C(=O)[C@H](CCCCN)NC(=O)c1ccc(O[C@@H]2O[C@H](CO)[C@H](O)[C@H](O)[C@H]2O)cc1)C(N)=O)[C@@H](C)CC)C(N)=O | biofilm formation | PAO1 | 24 h | MBIC | 30 µM |
